{"data": "Results gathered from unrelated publications", "note": "Numbered parts are unrelated; each lists some results of a single study. Substitutions count along the parent as printed."}
{"data": "Block 1", "target": "CCNE2, cyclin fold, Cln2 fusion (human)", "method": "yeast growth competition, sequencing", "medium": "yeast", "setting": "weak parent motif", "relative to": "not given", "direction": "higher = stronger binding", "parent": "PKMYT1 docking peptide (human); SFEPRNLLSLFED; partner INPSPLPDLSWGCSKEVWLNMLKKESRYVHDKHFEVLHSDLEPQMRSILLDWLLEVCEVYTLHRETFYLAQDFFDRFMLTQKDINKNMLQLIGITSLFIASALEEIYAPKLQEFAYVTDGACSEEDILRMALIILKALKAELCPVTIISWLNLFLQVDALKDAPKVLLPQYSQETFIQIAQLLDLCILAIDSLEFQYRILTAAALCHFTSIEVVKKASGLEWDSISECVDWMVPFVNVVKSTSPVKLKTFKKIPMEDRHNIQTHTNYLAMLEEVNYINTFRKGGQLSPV"}
{"Variant": "SFEPRNLLSLIED [F11I]", "normalised enrichment score": 0.291}
{"Variant": "SFEPRNLLSDFED [L10D]", "normalised enrichment score": 0.345}
{"Variant": "SFEPANALSLFED [R5A L7A]", "normalised enrichment score": -0.446}
{"Variant": "SFEHRNLLSLFED [P4H]", "normalised enrichment score": -0.152}
{"Variant": "SFEPRNLLSHFED [L10H]", "normalised enrichment score": -0.16}
{"Variant": "SFEPRNLMSLFED [L8M]", "normalised enrichment score": 0.44}
{"Variant": "VFEPRNLLSLFED [S1V]", "normalised enrichment score": 0.474}
{"Variant": "SFYPRNLLSLFED [E3Y]", "normalised enrichment score": 0.473}
{"Variant": "SFEPRNHLSLFED [L7H]", "normalised enrichment score": -0.0114}
{"Variant": "SFEPRNLLSAFED [L10A]", "normalised enrichment score": 0.538}
{"Variant": "SFEDRNLLSLFED [P4D]", "normalised enrichment score": -1.06}
{"Variant": "SFEPRNLLSLGED [F11G]", "normalised enrichment score": -0.374}
{"Variant": "SFEPRNLLVLFED [S9V]", "normalised enrichment score": 0.541}
{"data": "Block 2", "target": "Ras GTPase-activating protein-binding protein 1, full length (G3BP1, Homo sapiens, UniProt Q13283)", "method": "RNA Bind-n-Seq", "molecule type": "RNA", "medium": "in vitro", "concentration": "200 nM", "setting": "whole 134-nt RNA, ends assumed", "added": "150 mM KCl", "relative to": "input library", "direction": "higher = stronger binding", "chain of UniProt Q13283 (whole entry, looked up)": "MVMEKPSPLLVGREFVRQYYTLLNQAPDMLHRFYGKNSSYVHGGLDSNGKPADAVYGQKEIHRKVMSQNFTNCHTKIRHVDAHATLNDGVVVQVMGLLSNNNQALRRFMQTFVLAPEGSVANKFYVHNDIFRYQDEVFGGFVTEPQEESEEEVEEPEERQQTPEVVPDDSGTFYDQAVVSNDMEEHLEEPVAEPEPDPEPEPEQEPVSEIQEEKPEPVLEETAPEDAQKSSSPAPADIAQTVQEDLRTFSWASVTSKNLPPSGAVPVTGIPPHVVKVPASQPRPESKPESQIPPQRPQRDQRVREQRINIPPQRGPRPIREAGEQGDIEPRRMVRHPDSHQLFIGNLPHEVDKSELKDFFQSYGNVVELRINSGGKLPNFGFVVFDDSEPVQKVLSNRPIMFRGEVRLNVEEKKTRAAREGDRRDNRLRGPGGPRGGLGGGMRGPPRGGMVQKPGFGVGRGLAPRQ"}
{"Sequence": "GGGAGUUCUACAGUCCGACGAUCAAGUCCUGUGCUACACAUCGUAUGUACCGAAUCGGGCCCGGGGCCCGGGGCCCGGGAAAGUAUUAUGUUACGCCGUUCGGAUCUGCACUUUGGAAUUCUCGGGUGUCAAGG", "log2 enrichment": -1.11}
{"Sequence": "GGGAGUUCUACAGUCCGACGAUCUCAAGUCCUGUGCUACACAUCGUAUGUACCGAAUCGGAAAGGUGGAAAAAAAGGAAAGUAUUAUGUUACGCCGUUCGGAUCUGCACUUCCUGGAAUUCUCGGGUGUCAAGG", "log2 enrichment": -1.36}
{"Sequence": "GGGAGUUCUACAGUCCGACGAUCCAAGUCCUGUGCUACACAUCGUAUGUACCGAAUCGGAAAAGGAAAAGGAAAAGGGAAAGUAUUAUGUUACGCCGUUCGGAUCUGCACUUCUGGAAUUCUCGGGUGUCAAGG", "log2 enrichment": -0.83}
{"Sequence": "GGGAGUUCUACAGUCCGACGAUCCAAGUCCUGUGCUACACAUCGUAUGUACCGAAUCGGGCCCGGCCCGGGCCCGGGGAAAGUAUUAUGUUACGCCGUUCGGAUCUGCACUUCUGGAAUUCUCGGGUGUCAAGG", "log2 enrichment": -1.27}
{"Sequence": "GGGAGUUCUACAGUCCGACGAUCGCAGGAAGUAAAAACAAAUGGAAAUGCUUCGGAUAGUGGCAGGGGUGGGGGUUAAAAAGGAAAGGGUGGGAUGGGAGUGGGUAAAGAGUUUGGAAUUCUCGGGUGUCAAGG", "log2 enrichment": 0.998}
{"Sequence": "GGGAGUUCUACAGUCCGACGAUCCUGUGCUACACAUCGUAUGUACCGAAUCGGGGAAAAAAAGGGGUUUGGGGAAAAAAAGGGGAAAGUAUUAUGUUACGCCGUUCGGAUCUGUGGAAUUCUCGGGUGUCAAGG", "log2 enrichment": -0.272}
{"Sequence": "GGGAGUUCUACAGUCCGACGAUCUCAAGUCCUGUGCUACACAUCGUAUGUACCGAAUCGGGCCCGGGGCCCGGCCCGGAAAGUAUUAUGUUACGCCGUUCGGAUCUGCACUUCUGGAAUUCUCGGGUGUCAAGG", "log2 enrichment": -1.38}
{"Sequence": "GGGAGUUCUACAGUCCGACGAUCGCAGGAAGUAAAAACAAAUGGAAAUGCUUCGGAUAGUGGCAGGGGUGGGGGUUGCUAAGGAAAGGGUGGGAUGGGAGUGGAUAAAGAGUUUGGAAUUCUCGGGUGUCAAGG", "log2 enrichment": 0.881}
{"Sequence": "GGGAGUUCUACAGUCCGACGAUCACCAUGCAGGUGGGCAUCUUUGGGAAGUGGGGCAAGGGGGGGAUAGGGAGGGGGGUAACACUUUGGGAACAGGUGAAACCAGGUCGUUUCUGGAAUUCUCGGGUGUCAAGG", "log2 enrichment": 0.917}
{"Sequence": "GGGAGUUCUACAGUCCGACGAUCCAAGUCCUGUGCUACACAUCGUAUGUACCGAAUCGGGUUUGGUUUGGGGUUUGGGAAAGUAUUAUGUUACGCCGUUCGGAUCUGCACUUCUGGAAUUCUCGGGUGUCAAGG", "log2 enrichment": 0.139}
{"data": "Block 3", "target": "RING finger protein unkempt homolog, zinc fingers 1-6, GST-SBP tag (UNK, Homo sapiens, UniProt Q9C0B0, residues 30-357)", "method": "RNA Bind-n-Seq", "molecule type": "RNA", "medium": "in vitro", "concentration": "not given", "setting": "RNA with constant flanks, human and mouse sites, ends assumed", "relative to": "input RNA pool", "direction": "higher = stronger binding", "Construct (chain)": "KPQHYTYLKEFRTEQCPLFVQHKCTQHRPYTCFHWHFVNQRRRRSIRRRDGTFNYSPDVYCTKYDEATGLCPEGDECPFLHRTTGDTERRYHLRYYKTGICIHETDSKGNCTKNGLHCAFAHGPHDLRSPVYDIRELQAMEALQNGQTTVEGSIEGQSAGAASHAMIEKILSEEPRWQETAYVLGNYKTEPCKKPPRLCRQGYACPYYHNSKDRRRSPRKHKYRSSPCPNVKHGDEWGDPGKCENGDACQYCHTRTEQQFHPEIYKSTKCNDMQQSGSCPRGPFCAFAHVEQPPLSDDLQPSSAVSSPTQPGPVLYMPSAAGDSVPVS"}
{"Sequence": "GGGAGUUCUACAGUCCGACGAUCGUGAGCCACCGUGCCUGGCCGACGAUAUAACUUUUAAAGAACCAACCUUUGGUUUUAUUUUUCUCAAUUGUUUAUAUAAUUAAUUUCUGUUAUUUUCUUUCUUCUAUUUAGCUUGAGUCUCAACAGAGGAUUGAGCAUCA", "bound/input enrichment [ratio]": 16}
{"Sequence": "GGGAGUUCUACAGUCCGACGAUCGCGGCCCGCCGCGCUGUCGCUGCAGUCAUGGCUGCUGACGGGGUGGACGAACGUUCGCCUCUGCUGUCAGCAUCCCAUUCGGGAAAUGUCACUCCCACAGCCCCGCCGUACUUGCAGGAACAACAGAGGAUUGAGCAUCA", "bound/input enrichment [ratio]": 0.11}
{"Sequence": "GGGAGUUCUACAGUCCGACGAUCACGAACGAGGAGGUAUCGGGAGACCUGGAUAAUCUAGAUGCCAUUCUUGGAGAUUUGACCAGUUCUGACUUCUACAACAAUCCUACAAAUGGCGGUCACCCAGGGGCCAAACAGCAGAUGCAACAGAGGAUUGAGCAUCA", "bound/input enrichment [ratio]": 0.203}
{"Sequence": "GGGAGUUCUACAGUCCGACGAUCGUUCUUAAAGAUGUGGGAUUGAAAAAAGAAGAUAUUGCAAUGUGGGAAGUAAAUGAAGCCUUUAGUCUGGUUGUACUAGCAAACAUUAAAAUGUUGGAGAUUGAUCCCCAAAAAGUGAAUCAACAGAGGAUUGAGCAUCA", "bound/input enrichment [ratio]": 0.325}
{"Sequence": "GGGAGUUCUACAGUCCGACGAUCAAGUAUUUCUCUCUCAUUCCCACAGGAUUUGCAGAUGAAGACAUUAAUAAAAGGUUCCUAAGUGAUAUCCCAAGCUCUCAGAUUCUCCAGGAAGAGAUGACUUGGAUGAAGGAGAUUCUUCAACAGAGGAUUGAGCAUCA", "bound/input enrichment [ratio]": 0.0757}
{"Sequence": "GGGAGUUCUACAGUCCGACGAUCGAAAUGACACUGGCCCAGCUUUUUCUACAGUCAGAGGCUGCUUAUUGUUGUGUCAGUGAAUUAGGAGAACUUGGAAAGGUUCAGUUUCGUGACUUAAAUCCAGAUGUGAAUGUUUUCCAACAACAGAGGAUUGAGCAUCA", "bound/input enrichment [ratio]": 0.156}
{"Sequence": "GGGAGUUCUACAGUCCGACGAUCCCUGAACUUUUAGCUUUCAAGUUGUGGCUGUUUUUUGUUUUUGUUUUUGUUUUUGUUUUCUUUAGAAUUUUUCCCUGUUUCCCACCUUCUCUUCCCCUGUUGCCAAGGUCUAACUCAUGGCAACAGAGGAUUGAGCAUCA", "bound/input enrichment [ratio]": 5.7}
{"Sequence": "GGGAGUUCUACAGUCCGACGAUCAGGGAGAGUCAAGAACUGAGAUCUCUGGGCAAGUGGAACCCAGAGACUGUGGAAUCACCAGGAGGGGUGGAGGACAGUCAGCAGUGCCUGGAAGUGGAAGAGGGCCCGGAGAGGGAGCAGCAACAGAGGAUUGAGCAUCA", "bound/input enrichment [ratio]": 0.511}
{"Sequence": "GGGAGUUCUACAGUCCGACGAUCAAACAAGUAACUUGUGAGAAUUCUCCAAAGUCUCCUAAAGUGACUGGAACAGCUUCUAAAAAGAAACAAAUUACACCCUCUCAAUGCAAGGAACGGAAUUUACAAGAUCCUGUGCCAAAGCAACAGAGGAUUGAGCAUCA", "bound/input enrichment [ratio]": 0.222}
{"Sequence": "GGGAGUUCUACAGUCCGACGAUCAGGCCUUGGUUUACACCCAGAUCCAUUUAUAUGGAAGCAUCUACAGUGGAUUGUAAUGAUUUAGGUCUUUUAACUUUCCCAGCCAGAUUGCCAGCUAACACACAGAUUCUUCUCCUACAGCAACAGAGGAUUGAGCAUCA", "bound/input enrichment [ratio]": 0.172}
{"Sequence": "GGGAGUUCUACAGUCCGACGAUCGGUGGUACCCUAGACCUGACCUUGAUUCGUGCUCGCCUCCAAGAGAAGCUGUCACCUCCUUAUAGCUCCCCCCAGGAGUUUGCUCAAGAUGUGGGCCGCAUGUUCAAACAGUUCAACAAGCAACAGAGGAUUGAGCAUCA", "bound/input enrichment [ratio]": 0.379}
{"data": "Single results of other studies"}
{"Molecule": "PhoQ, residues 284 288 289 292 302 303 TAVSDG", "target": "PhoP, residues 12 14 15 18 19 AQALL (Escherichia coli, UniProt P23836)", "test": "Sort-seq, item: YFP reporter", "test system": "E. coli", "conditions": "PhoQ-PhoP variant library, added: 10 µM Mg2+", "how to read": "relative to: high Mg2+ state, higher = stronger signaling", "quantity": "fold induction", "result": 1.9}
